Experimental data of several laboratories.
Compare with care: the assays were run in different laboratories. Numbers after ± are the reported error.
AGER: Advanced glycosylation end product-specific receptor (AGER, Homo sapiens, UniProt Q15109)
UniProt Q15109, sequence (whole entry, looked up): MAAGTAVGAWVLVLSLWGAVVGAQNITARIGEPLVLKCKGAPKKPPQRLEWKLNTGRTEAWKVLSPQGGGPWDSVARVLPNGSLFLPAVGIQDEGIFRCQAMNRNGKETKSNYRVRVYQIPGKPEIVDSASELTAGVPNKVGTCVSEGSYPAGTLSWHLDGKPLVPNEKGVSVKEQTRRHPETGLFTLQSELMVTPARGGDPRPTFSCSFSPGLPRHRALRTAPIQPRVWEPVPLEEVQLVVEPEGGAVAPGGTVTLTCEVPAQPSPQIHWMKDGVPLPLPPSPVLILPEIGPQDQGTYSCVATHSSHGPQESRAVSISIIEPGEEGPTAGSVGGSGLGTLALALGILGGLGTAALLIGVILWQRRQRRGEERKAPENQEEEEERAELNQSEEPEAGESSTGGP
UniProt P16885, sequence (whole entry, looked up): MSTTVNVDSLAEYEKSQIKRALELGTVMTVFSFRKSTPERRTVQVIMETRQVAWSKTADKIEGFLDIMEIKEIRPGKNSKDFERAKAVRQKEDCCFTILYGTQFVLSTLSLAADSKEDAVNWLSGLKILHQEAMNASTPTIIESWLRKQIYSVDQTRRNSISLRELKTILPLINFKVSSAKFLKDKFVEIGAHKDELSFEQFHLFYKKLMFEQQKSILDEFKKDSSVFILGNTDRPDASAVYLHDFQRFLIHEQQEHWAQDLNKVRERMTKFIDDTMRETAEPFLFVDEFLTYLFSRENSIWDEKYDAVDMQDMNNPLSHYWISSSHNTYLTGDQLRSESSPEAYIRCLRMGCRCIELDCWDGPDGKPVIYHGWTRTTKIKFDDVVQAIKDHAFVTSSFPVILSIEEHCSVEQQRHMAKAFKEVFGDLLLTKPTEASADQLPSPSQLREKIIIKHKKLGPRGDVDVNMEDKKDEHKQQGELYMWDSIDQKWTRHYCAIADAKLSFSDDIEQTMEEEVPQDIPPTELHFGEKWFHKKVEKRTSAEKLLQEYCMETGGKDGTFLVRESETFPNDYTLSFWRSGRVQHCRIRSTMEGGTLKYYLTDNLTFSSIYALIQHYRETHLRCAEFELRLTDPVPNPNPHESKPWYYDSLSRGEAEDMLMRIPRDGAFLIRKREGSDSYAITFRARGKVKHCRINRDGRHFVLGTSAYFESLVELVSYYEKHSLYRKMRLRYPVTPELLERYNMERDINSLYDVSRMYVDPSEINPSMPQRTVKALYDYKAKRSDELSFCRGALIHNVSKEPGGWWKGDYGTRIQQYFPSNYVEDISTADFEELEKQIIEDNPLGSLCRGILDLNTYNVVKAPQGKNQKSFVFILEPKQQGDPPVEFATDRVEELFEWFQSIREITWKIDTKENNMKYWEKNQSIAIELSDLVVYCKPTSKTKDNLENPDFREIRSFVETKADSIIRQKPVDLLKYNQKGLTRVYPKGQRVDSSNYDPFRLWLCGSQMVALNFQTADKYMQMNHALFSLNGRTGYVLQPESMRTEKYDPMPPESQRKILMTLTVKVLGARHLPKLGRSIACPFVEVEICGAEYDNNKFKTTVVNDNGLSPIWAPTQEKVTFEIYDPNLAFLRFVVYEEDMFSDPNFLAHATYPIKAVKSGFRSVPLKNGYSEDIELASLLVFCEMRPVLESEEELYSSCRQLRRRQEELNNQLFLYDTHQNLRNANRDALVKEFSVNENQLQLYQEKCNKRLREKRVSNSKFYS
UniProt P50552, sequence (whole entry, looked up): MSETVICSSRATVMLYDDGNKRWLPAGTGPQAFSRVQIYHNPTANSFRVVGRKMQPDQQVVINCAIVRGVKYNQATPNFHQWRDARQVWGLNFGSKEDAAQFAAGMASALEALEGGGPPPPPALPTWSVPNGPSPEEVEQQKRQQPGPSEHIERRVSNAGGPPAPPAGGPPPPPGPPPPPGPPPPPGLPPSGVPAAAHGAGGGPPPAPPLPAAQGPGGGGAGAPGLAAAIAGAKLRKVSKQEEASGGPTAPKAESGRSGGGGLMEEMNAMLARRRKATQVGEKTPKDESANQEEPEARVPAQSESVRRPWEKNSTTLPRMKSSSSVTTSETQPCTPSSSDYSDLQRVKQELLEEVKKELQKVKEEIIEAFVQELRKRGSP
UniProt P21396, sequence (whole entry, looked up): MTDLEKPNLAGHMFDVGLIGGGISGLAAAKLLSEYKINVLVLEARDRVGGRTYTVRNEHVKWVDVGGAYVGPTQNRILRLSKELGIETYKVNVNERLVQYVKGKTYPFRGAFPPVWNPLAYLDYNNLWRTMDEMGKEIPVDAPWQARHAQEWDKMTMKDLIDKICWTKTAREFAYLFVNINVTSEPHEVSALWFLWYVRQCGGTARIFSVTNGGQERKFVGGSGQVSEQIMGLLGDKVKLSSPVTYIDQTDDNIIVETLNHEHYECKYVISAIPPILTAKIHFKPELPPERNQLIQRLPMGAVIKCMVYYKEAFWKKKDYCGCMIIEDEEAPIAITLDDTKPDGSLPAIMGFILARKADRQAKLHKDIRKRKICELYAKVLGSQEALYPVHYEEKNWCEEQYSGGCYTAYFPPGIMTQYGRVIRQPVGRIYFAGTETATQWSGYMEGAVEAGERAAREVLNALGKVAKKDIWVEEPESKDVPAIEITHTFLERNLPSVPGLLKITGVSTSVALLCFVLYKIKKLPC
UniProt Q6L545, sequence (whole entry, looked up): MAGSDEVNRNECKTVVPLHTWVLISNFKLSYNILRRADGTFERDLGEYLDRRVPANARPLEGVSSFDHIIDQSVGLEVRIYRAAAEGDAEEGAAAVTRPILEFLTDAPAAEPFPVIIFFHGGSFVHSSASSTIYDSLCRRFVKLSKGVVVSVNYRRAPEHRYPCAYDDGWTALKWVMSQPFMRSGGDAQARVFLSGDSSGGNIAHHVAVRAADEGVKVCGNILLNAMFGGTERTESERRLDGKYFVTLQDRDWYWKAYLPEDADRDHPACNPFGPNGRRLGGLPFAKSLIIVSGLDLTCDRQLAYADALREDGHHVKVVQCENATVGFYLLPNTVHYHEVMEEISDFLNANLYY
UniProt P17706, sequence (whole entry, looked up): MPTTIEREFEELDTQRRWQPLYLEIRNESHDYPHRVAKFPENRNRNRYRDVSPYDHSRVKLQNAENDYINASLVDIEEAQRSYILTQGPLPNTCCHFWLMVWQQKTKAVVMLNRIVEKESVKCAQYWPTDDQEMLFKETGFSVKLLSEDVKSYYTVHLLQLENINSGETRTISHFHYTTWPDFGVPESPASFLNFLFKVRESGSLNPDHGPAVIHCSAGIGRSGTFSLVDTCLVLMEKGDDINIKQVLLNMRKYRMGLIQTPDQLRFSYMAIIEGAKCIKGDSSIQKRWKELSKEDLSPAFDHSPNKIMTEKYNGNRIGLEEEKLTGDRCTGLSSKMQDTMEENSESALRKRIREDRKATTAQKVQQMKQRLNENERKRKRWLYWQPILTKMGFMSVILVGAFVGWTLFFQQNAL
UniProt P03146, sequence (whole entry, looked up): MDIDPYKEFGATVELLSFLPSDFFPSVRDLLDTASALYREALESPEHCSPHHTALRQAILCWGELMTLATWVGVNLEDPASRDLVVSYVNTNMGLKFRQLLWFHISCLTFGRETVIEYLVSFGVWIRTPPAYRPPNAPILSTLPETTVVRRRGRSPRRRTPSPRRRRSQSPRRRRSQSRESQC
UniProt P08191, sequence (whole entry, looked up): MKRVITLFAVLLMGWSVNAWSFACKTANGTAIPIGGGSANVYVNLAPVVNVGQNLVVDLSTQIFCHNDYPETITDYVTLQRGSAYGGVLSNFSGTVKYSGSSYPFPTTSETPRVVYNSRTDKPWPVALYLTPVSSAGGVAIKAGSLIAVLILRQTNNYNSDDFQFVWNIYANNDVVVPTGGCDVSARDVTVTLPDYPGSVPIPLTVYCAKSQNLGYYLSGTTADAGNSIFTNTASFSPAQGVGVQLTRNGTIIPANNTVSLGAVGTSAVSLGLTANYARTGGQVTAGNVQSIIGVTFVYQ
UniProt O14757, sequence (whole entry, looked up): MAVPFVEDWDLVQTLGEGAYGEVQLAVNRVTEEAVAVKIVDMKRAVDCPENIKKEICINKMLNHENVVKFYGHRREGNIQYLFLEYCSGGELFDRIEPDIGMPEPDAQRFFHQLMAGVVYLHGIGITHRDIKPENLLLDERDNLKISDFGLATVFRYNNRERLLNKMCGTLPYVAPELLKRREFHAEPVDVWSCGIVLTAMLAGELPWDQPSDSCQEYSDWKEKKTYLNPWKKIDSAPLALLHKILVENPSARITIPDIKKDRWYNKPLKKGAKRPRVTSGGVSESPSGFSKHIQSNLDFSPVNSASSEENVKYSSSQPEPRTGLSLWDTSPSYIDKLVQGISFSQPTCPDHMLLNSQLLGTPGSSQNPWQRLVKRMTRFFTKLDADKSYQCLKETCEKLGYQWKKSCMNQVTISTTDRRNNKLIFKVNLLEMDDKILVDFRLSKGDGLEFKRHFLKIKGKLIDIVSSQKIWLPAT
UniProt P22748, sequence (whole entry, looked up): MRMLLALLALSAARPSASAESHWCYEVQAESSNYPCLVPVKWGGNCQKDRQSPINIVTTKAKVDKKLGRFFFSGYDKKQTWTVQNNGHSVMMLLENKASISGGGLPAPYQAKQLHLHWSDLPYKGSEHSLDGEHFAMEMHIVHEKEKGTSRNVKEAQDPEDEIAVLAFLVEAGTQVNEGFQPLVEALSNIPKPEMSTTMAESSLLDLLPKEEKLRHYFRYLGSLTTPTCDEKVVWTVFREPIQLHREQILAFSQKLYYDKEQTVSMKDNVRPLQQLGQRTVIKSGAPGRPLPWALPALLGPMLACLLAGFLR
UniProt Q10QA5, sequence (whole entry, looked up): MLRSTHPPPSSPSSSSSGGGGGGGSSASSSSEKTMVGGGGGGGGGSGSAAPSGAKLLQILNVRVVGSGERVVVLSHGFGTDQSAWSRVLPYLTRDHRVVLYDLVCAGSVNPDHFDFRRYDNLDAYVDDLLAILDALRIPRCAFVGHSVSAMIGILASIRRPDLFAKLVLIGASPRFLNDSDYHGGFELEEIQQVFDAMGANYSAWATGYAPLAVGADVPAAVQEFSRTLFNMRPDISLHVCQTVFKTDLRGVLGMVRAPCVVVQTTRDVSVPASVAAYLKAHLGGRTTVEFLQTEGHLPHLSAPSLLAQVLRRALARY

SMILES | target | test | conditions | Kd
CCc1nc2cc3ccccc3cc2cc1C(=O)N[C@@H](CCCCN)C(=O)N[C@@H](C/C=C\C[C@H](NC(=O)[C@H](CCCCN)NC(=O)c1cc2cc3ccccc3cc2nc1CC)C(=O)N1CCC[C@H]1C(=O)NCCCN)C(=O)N1CCC[C@H]1C(=O)NCCCN | (CCUG)10 RNA | SPR | – | 313 nM
Cn1c(=O)n(C2CCC(=O)NC2=O)c2ccc(C3CCN(CC(=O)Nc4cccc(CS(=O)(=O)N5CC[C@H](Nc6cccc(-c7sc(C(=O)O)c(OCC(=O)O)c7Cl)c6)CC5(C)C)c4)CC3)cc21 (stereo partly drawn) | Tyrosine-protein phosphatase non-receptor type 2 (PTPN2, Homo sapiens, UniProt P17706) | binding, BLI | – | 52 nM
COC(=O)CCCNC(=O)c1cc(S(N)(=O)=O)c(Cl)cc1NC1CCCCC1 | Carbonic anhydrase 4 (CA4, Homo sapiens, UniProt P22748) | – | pH 7 | 1600 nM
CCCC[C@@H]1NC(=O)[C@H](Cc2ccc(O)cc2)NC(=O)[C@@H]2CCCN2C(=O)[C@H](CC(=O)O)NC(=O)[C@H](C)NC(=O)[C@H](Cc2ccccc2)NC(=O)[C@@H]2CSCCC(=O)N3CN(CN(C3)C(=O)CCSC[C@@H](C(=O)N[C@@H](C)C(N)=O)NC1=O)C(=O)CCSC[C@H](NC(C)=O)C(=O)N[C@@H](CC(C)(C)C)C(=O)N1CCC[C@H]1C(=O)N[C@@H](CCC(=O)O)C(=O)N[C@H](CCCCNC(=O)CCc1cn(CCOCCOCCOCCN(CCOCCOCCOCCC(=O)N[C@H]3CSCCC(=O)N4CN5CN(C4)C(=O)CCSC[C@H](NC(=O)[C@@H](CC(=O)O)NC(=O)[C@H](Cc4cccc6ccccc46)NC(=O)[C@@H]4CCCN4C3=O)C(=O)N[C@@H](CCSC)C(=O)N[C@@H](CCCCNC(=N)N)C(=O)N[C@@H](CC(=O)O)C(=O)N[C@@H](Cc3c[nH]c4ccccc34)C(=O)N[C@@H](CO)C(=O)N[C@@H]([C@@H](C)O)C(=O)N3CCC[C@H]3C(=O)N3C[C@H](O)C[C@H]3C(=O)N[C@@H](Cc3c[nH]c4ccccc34)C(=O)N[C@H](C(N)=O)CSCCC5=O)CCOCCOCCOCCn3cc(CCC(=O)NCCCC[C@H]4NC(=O)[C@H](CCC(=O)O)NC(=O)[C@@H]5CCCN5C(=O)[C@H](CC(C)(C)C)NC(=O)[C@@H](NC(C)=O)CSCCC(=O)N5CN6CN(C5)C(=O)CCSC[C@H](NC(=O)[C@H](Cc5ccc(O)cc5)NC(=O)[C@@H]5CCCN5C4=O)C(=O)N[C@@H](Cc4ccccc4)C(=O)N[C@@H](C)C(=O)N[C@@H](CC(=O)O)C(=O)N4CCC[C@H]4C(=O)N[C@@H](Cc4ccc(O)cc4)C(=O)N[C@@H](CCCC)C(=O)N[C@H](C(=O)N[C@@H](C)C(N)=O)CSCCC6=O)nn3)nn1)C(=O)N1CCC[C@H]1C(=O)N[C@@H](Cc1ccc(O)cc1)C(=O)N2 | Cell adhesion molecule 1 (CADM1, Homo sapiens, UniProt Q9BY67) | SPR | – | > 200 nM
Nc1ncc2c(n1)-c1c([nH]c3ccc(C4=CCOCC4)cc13)CCC2 | Phosphatidylinositol 5-phosphate 4-kinase type-2 gamma (PIP4K2C, Homo sapiens, UniProt Q8TBX8) | binding, competition with immobilised ligand | – | 19 nM
CCc1nc2cc3ccccc3cc2cc1C(=O)N1CCC[C@H]1C(=O)N[C@@H](CCC/C=C\CCC[C@H](NC(=O)[C@@H]1CCCN1C(=O)c1cc2cc3ccccc3cc2nc1CC)C(=O)N[C@@H](CCCCN)C(=O)NCCCN)C(=O)N[C@@H](CCCCN)C(=O)NCCCN | (CCUG)10 RNA | SPR | – | 292 nM
CC(=O)NC(Cc1ccccc1Cl)C(=O)N1CCCC1C(=O)N1CCCC1C(=O)N1CCC2C=CC3C(C)CC(C(=O)O)N3C(=O)C21 (stereo not drawn) | Vasodilator-stimulated phosphoprotein (VASP, Homo sapiens, UniProt P50552) | binding, fluorescence | – | 380 nM
Cc1ccc(CN)cc1 | Amine oxidase [flavin-containing] A (Maoa, Rattus norvegicus, UniProt P21396) | steady-state isotope effects | pH 7.5 | 41000 nM
CCCCCCCO[C@H]1O[C@H](CO)[C@@H](O)[C@H](O)[C@@H]1O | Type 1 fimbrin D-mannose specific adhesin, lectin domain (fimH, Escherichia coli K-12, UniProt P08191) | binding, isothermal titration calorimetry | 15 °C, global fit, two runs | 20.6 nM
Cc1cccc2c1N(C(=O)n1ccnn1)CC2 | D14 (Oryza sativa, UniProt Q10QA5) | ITC | mean of 3 runs | 23800 nM
CCCCCNC(=O)N1N=C(c2ccc(Cl)cc2)CC1c1ccc(NC(=O)Nc2ccc(Cl)cc2)cc1 (stereo not drawn) | AGER | binding | – | 13800 ± 3100 nM
NCCCC[C@H](NC(=O)[C@H](C/C=C/C[C@H](NC(=O)[C@@H]1CCCN1)C(=O)N[C@@H](CCCCN)C(=O)NCCCN)NC(=O)[C@@H]1CCCN1)C(=O)NCCCN | (CCUG)10 RNA | SPR | – | 41100 nM
O=C(Nc1cc(F)c(F)c(F)c1)c1ccc(F)c(S(=O)(=O)N2CCC(O)CC2)c1 | Capsid protein (C, Hepatitis B virus genotype D subtype ayw, UniProt P03146) | surface plasmon resonance | 25 °C | 726000 nM
C[C@@]12C(=O)O[C@]3(CC[C@@H]1O)[C@@H]1CC[C@@H]4C[C@]1(C[C@]4(O)CO)[C@@H](C(=O)O)[C@@H]32 | GID1 (Oryza sativa, UniProt Q6L545) | – | – | 6670 nM
CCc1nc2cc3ccccc3cc2cc1C(=O)N1CCC[C@H]1C(=O)N[C@@H](C/C=C/C[C@H](NC(=O)[C@@H]1CCCN1C(=O)c1cc2cc3ccccc3cc2nc1CC)C(=O)N[C@@H](CCCCN)C(=O)NCCCN)C(=O)N[C@@H](CCCCN)C(=O)NCCCN | (CCUG)10 RNA | SPR | – | 17 nM
Nc1ncc(-c2cc(-c3cnn(CC(F)(F)F)c3)ncc2F)nc1C(=O)NC1CNCC(F)C1 (stereo not drawn) | Serine/threonine-protein kinase Chk1 (CHEK1, Homo sapiens, UniProt O14757) | binding, competition with immobilised ligand | – | 810 nM
Cc1c[nH]c2nccc(-c3ccc(C(=O)N[C@@H]4c5c(F)cc(C(F)F)cc5C[C@@H]4O)cn3)c12 | Proto-oncogene tyrosine-protein kinase receptor Ret (RET, Homo sapiens, UniProt P07949) | binding, competition with immobilised ligand | – | 850 nM
COc1ccc(OC)c(-n2nnc(C(=O)Nc3cc(OCCOCCOCCOCCNC(=O)CCc4ccc5n4[B-](F)(F)[N+]4=C(C)C=C(C)C4=C5)cc(C(C)(C)C)c3)c2C)c1 | Nuclear receptor subfamily 1 group I member 2, ligand-binding domain (NR1I2, Homo sapiens, UniProt O75469, L411A) | binding | PXR LBD L411A | 40 ± 4 nM
Clc1ccc2c(c1)N(CCCN1CCN(CCn3cc(CN4CCCNCCN(Cc5cn(CCN6CCN(CCCN7c8ccccc8Sc8ccc(Cl)cc87)CC6)nn5)CCCNCC4)nn3)CC1)c1ccccc1S2 | Amyloid-beta precursor protein, monomer (APP, Homo sapiens, UniProt P05067) | binding | – | 7600 nM
CCOC(=O)Nc1ccc(NCc2ccc(F)cc2)nc1N | 1-phosphatidylinositol 4,5-bisphosphate phosphodiesterase gamma-2 (PLCG2, Homo sapiens, UniProt P16885) | binding, surface plasmon resonance | 25 °C, immobilised residues 1-1195 | 22000 nM
CCCCC(=O)N1N=C(c2ccc(NC(=O)Nc3ccc(Cl)cc3)cc2)CC1c1ccc(Cl)cc1 (stereo not drawn) | AGER | binding | – | 22600 ± 1100 nM

Excerpt of the above:
SMILES | target | test | conditions | Kd
NCCCC[C@H](NC(=O)[C@H](C/C=C/C[C@H](NC(=O)[C@@H]1CCCN1)C(=O)N[C@@H](CCCCN)C(=O)NCCCN)NC(=O)[C@@H]1CCCN1)C(=O)NCCCN | (CCUG)10 RNA | SPR | – | 41100 nM
O=C(Nc1cc(F)c(F)c(F)c1)c1ccc(F)c(S(=O)(=O)N2CCC(O)CC2)c1 | Capsid protein (C, Hepatitis B virus genotype D subtype ayw, UniProt P03146) | surface plasmon resonance | 25 °C | 726000 nM
